# Experimental data pooled from the literature.
# ± gives the spread as reported.
# Chain of UniProt P16152 (whole entry, looked up): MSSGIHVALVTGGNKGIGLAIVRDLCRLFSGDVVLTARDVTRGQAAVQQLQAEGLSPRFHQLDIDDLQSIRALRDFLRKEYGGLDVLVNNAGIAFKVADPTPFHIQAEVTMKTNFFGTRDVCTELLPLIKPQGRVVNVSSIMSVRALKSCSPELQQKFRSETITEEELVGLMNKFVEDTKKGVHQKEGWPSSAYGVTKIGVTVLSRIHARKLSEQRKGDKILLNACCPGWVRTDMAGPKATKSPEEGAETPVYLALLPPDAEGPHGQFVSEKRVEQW
SMILES,tested on,test,system,conditions,scale,measurement,value
OC(CCN1CC=C(c2ccc(F)cc2)CC1)c1ccc(F)c2ccccc12 (stereo not drawn),Salmonella typhimurium,"genotoxicity, SOS/umu test",TA1535/pSK1002,"0.001 mg/mL, 4 h, with S9, lower range",,induction factor,0.7
CC[C@H](C)[C@H](N)C(=O)N[C@@H](CO)C(=O)N[C@@H](Cc1ccccc1)C(=O)N[C@@H](CC(C)C)C(=O)NCC(=O)N[C@@H](CO)C(=O)N[C@@H](CCCCN)C(=O)N[C@H](C(=O)N[C@H](C(=O)N[C@H](C(=O)N[C@@H](CC(C)C)C(=O)N[C@@H](CC(C)C)C(=O)N[C@@H](CCCCN)C(=O)N[C@@H](CCCNC(=N)N)C(=O)N[C@@H](CCCNC(=N)N)C(=O)N[C@@H](CCCCN)C(=O)N[C@@H](CCCNC(=N)N)C(=O)N[C@@H](CCCCN)C(=O)N[C@@H](CCCNC(=N)N)C(=O)N[C@@H](CCCCN)C(N)=O)C(C)C)C(C)C)C(C)C,human erythrocytes,,,"400 µM, 1 h",relative to: Triton X-100,hemolysis,17%
CC[C@H](C)[C@H](NC(=O)[C@H](Cc1ccccc1)NC(=O)[C@H](CCC(=O)O)NC(=O)[C@H](CCCNC(=N)N)NC(=O)[C@H](C)NC(=O)[C@H](C)NC(=O)[C@H](CCC(N)=O)NC(=O)[C@H](CCC(=O)O)NC(=O)[C@H](CCC(=O)O)NC(=O)[C@H](CC(C)C)NC(=O)[C@H](Cc1ccc(O)cc1)NC(=O)[C@H](CO)NC(=O)[C@H](CO)NC(=O)[C@@H](NC(=O)[C@H](CC(=O)O)NC(=O)[C@H](CO)NC(=O)[C@@H](NC(=O)[C@H](Cc1ccccc1)NC(=O)[C@@H](NC(=O)CNC(=O)[C@H](CCC(=O)O)NC(=O)[C@H](C)NC(=O)CCc1cnc[nH]1)[C@@H](C)O)[C@@H](C)O)C(C)C)C(=O)N[C@@H](C)C(=O)N[C@@H](Cc1c[nH]c2ccccc12)C(=O)N[C@@H](CC(C)C)C(=O)N[C@H](C(=O)N[C@@H](CCCNC(=N)N)C(=O)NCC(=O)N[C@@H](CCCNC(=N)N)C(=O)N[C@@H](CCCCNC(=O)COCCOCCNC(=O)COCCOCCNC(=O)CC[C@H](NC(=O)CCCCCCCCCCCCCCCCC(=O)O)C(=O)O)C(=O)NCC(=O)NCC(=O)N[C@@H](CO)C(=O)N[C@@H](CCCCNc1c(NCCCCCN(O)C(=O)CCC(=O)NCCCCCN(O)C(=O)CCC(=O)NCCCCCN(O)C(C)=O)c(=O)c1=O)C(=O)NCC(=O)NCC(=O)N[C@@H](CO)C(=O)N[C@@H](CCCCNc1c(NCCCCCN(O)C(=O)CCC(=O)NCCCCCN(O)C(=O)CCC(=O)NCCCCCN(O)C(C)=O)c(=O)c1=O)C(=O)O)C(C)C,"GLP1R (Homo sapiens, UniProt P43220)","cAMP reporter gene, agonist, CRE luciferase",BHK,"with Zr, 0% HSA",,EC50,6.8 pM
Cc1cc(C(=O)NC(C)(C)COc2cccc3c2C(N)=NS(=O)(=O)N3)cc(C)n1,Salmonella typhimurium,"Ames test, confirmatory",TA1537,"3333 µg/plate, together with: rat liver S9",relative to: solvent control,revertant ratio,0.9
CC(C)[C@@H]1NC(=O)[C@H](Cc2ccccc2)NC(=O)[C@@H]2NC(=O)[C@H](Cc3ccccc3)NC(=O)[C@@H]3CCCN3C(=O)CNC(=O)[C@H](Cc3ccccc3)NC(=O)[C@@H]3CNCCCC[C@@H](C(=O)O)NC(=O)[C@@H]4NC(=O)[C@H](CC(N)=O)NC(=O)CNC(=O)[C@H]([C@@H](O)C(=O)O)NC(=O)[C@H](CSC[C@@H](NC(=O)[C@H](CCC(N)=O)NC(=O)[C@H](CCCCNC(=O)c5ccc(NN)nc5)NC(=O)[C@@H](N)CS[C@H]4C)C(=O)N[C@@H](CS[C@H]2C)C(=O)N3)NC1=O [technetium-99m labelled],,,"rat ischemia-reperfusion, heart","saline, 2 h reperfusion",relative to: infarct over normal myocardium,tissue radioactivity ratio,27.3 ± 4.62
CO[C@H]1C[C@@H]2CC[C@@H](C)[C@@](O)(O2)C(=O)C(=O)N2CCCC[C@H]2C(=O)O[C@H]([C@H](C)C[C@@H]2CC[C@@H](OC(=O)NCCOCCOCCOCCOCCOCCOCCOCCOCCC(=O)N3CCc4cc(Cn5nc(-c6ccc7oc(N)nc7c6)c6c(N)ncnc65)ccc4C3)[C@H](OC)C2)C[C@@H](O)[C@H](C)/C=C(\C)[C@@H](O)[C@@H](OC)C(=O)[C@H](C)C[C@H](C)/C=C/C=C/C=C/1C,,"phase 1 dose escalation, refers to: vomiting",advanced solid tumour patients,"intravenous, 6 mg weekly, grade ≥3",,TRAE incidence,0%
CN1CC[C@@H](c2c(O)cc(O)c3c(=O)cc(-c4ccc(C(F)(F)F)cc4Cl)oc23)[C@@H]1CO,,refers to: Nausea,relapsed or refractory haematological malignancies,"oral, dose not given, all arms",,patients with adverse event,25%
CC(C)C[C@H](NC(=O)C[C@H](O)[C@H](CC(C)C)NC(=O)[C@H](Cc1c[nH]cn1)NC(=O)CNC(=O)[C@@H](NC(=O)[C@H](C)NC(=O)[C@H](Cc1c[nH]c2ccccc12)NC(=O)[C@H](CCC(N)=O)NC(=O)[C@@H](Cc1ccccc1)NC(=O)CCNC(=O)CCSc1nnc(NCCC(=O)NCCC(=O)NCCCC[C@H](NC(=O)N[C@@H](CCC(=O)O)C(=O)O)C(=O)O)c2c1CCC1C(CC2)C1COC(=O)NCCNC(=O)CC[C@H](C(=O)O)N1CCN(CC(=O)O)CCN(CC(=O)O)CC1)C(C)C)C(N)=O (stereo partly drawn) [gallium-68 labelled],,,"athymic NMRI nude mice, PC-3 xenograft, tumour","intravenous, 2 h, together with: bombesin 480 nmol co-injected",,tissue uptake,0.37 %ID/g
O=C(c1ccc(F)c(F)c1Nc1ccc(I)cc1F)N1CC(O)([C@@H]2CCCCN2)C1,,,patients aged 2 to 6 years,"oral, dose not given",,adverse events of special interest,50%
CC[C@@H](C)[C@@H](NC(=O)[C@@H](CC(C)C)NC(=O)[C@@H](CCCNC(=N)N)NC(=O)[C@@H](CCCNC(=N)N)NC(=O)[C@@H](CCCNC(=N)N)NC(=O)[C@@H](CCCNC(=N)N)NC(=O)[C@@H](CC(C)C)NC(=O)[C@H](NC(=O)[C@H](NC(=O)[C@H](NC(=O)[C@@H](CC(C)C)NC(=O)[C@@H](CCCNC(=N)N)NC(=O)[C@@H](CO)NC(=O)[C@H](N)CO)C(C)C)[C@H](C)CC)[C@H](C)CC)C(=O)N[C@H](CO)C(=O)N[C@H](CCCNC(=N)N)C(=O)N[C@H](CCCNC(=N)N)C(=O)N[C@H](CCCNC(=N)N)C(=O)N[C@H](CCCNC(=N)N)C(N)=O,human erythrocytes,,,"400 µM, 1 h",relative to: Triton X-100,hemolysis,18%
COc1cc2c(Oc3ccc4[nH]c(C)cc4c3F)ccnc2cc1OCC1(N)CC1,,,paediatric recurrent refractory sarcoma,10 mg,,grade 3 Hypothyroidism,0%
C[C@H]1CN(c2n[nH]c3nc(N[C@H]4CC[C@H](NS(=O)(=O)CCC(F)(F)F)CC4)ncc23)CCO1,"CBR1 (Homo sapiens, UniProt P16152)","competitor, Kinobeads competition",human cell extract,,,Hill slope,1

# For quick reference, copied from above:
SMILES,tested on,test,system,conditions,scale,measurement,value
C[C@H]1CN(c2n[nH]c3nc(N[C@H]4CC[C@H](NS(=O)(=O)CCC(F)(F)F)CC4)ncc23)CCO1,"CBR1 (Homo sapiens, UniProt P16152)","competitor, Kinobeads competition",human cell extract,,,Hill slope,1
